Results from different studies.
Compare with care: the assays were run in different laboratories. ± gives the spread as reported.

Molecule	cell line	test	conditions	scale	measurement	result
N#CCCNCCC#N	human iPSC-derived cardiomyocytes	cytotoxicity, calcein AM	24 h		point of departure	30 µM
C=C(C[C@H](N)C(=O)O)C(=O)Nc1ccc(Cl)cc1	MDA-MB-231		24 h	baseline: vehicle	concentration increasing cytotoxicity	32 µM
Cn1c(C(=O)Nc2ccc3c(c2)OCCO3)cc2c(=O)n3ccccc3nc21	Vero E6	MTT			IC50	151 µM
Nc1ncnn2c([C@@H]3O[C@H](CO)[C@@H](O)[C@H]3O)ccc12	Vero E6		concentration not given		cytotoxicity	toxic
CC(=O)OC[C@H]1O[C@@H](NC(=O)NC(=O)CCCc2ccc3c(c2)CCCC3)[C@H](OC(C)=O)[C@@H](OC(C)=O)[C@@H]1OC(C)=O	HEL fibroblasts	cell morphology	3 days		minimal cytotoxic concentration	> 100 µM
COc1ccc2c3c([nH]c2c1)[C@H](CC(C)C)N1C(=O)[C@H](CCC(=O)OC(C)(C)C)NC(=O)[C@@H]1C3	Jurkat-DNR	cytotoxicity, measured: cell viability			TD50	2.84 µM
Cc1cn(Cc2ccc(O)c(C=O)c2)c(=O)[nH]c1=O	HEL fibroblasts	cell morphology, microscopy			minimum cytotoxic concentration	≥ 100 µM
CC[C@H](C)[C@H](NC(=O)[C@H](CC(N)=O)NC(=O)[C@H](C)NC(=O)[C@H](CCCNC(=N)N)NC(=O)[C@H](CCCNC(=N)N)NC(=O)[C@H](CC(N)=O)NC(=O)[C@H](CCCNC(=N)N)NC(=O)[C@H](CCCNC(=N)N)NC(=O)[C@H](C)NC(=O)[C@@H](NC(=O)[C@H](CC(C)C)NC(=O)[C@@H](NC(=O)[C@@H](NC(=O)[C@H](CS)NC(=O)[C@H](CCCCN)NC(=O)[C@@H](N)CCCNC(=N)N)C(C)C)[C@@H](C)CC)C(C)C)C(=O)N[C@H](C(=O)N[C@H](C(=O)N[C@@H](CC(C)C)C(=O)N[C@@H](CS)C(=O)N[C@@H](CCCNC(=N)N)C(=O)O)[C@@H](C)CC)C(C)C	human red blood cells		128 µg/mL, 3 h, 37 °C	baseline: Triton X-100	hemolysis	4.23%
CN(C)N=O	HepaRG 3D spheroids	DNA damage, measured: % tail DNA	24 h	baseline: vehicle	lowest effective concentration	78.1 µM
O=P(Oc1ccccc1)(Oc1ccccc1)Oc1ccccc1	human iPSC-derived cardiomyocytes	mitochondrial membrane potential, measured: JC-10 granules	30 min		point of departure	< 30 µM
C[C@@H]1CCO[C@H]2Cn3cc(C(=O)NCc4ccc(F)cc4F)c(=O)c(O)c3C(=O)N12	hCMEC/D3		10 µM, 1 h, 37 °C		intracellular accumulation	250 ± 45.5 pmol/mg protein
CCCCC(=O)N1CCC2(CC1)N=C(N)N=C(N)N2c1cccc(OC)c1	MDCK	microscopy, altered cell morphology			minimum cytotoxic concentration	≥ 100 µM
N[C@@H](Cn1oc(=O)[nH]c1=O)C(=O)O	rat cerebellar granule cells	PI hydrolysis	24 h, culture-conditioned medium	baseline: freshly prepared	EC50 and Emax	no effect
O=C(CNS(=O)(=O)NCc1cccc(Oc2ccccc2)c1)N1CCN(Cc2ccccc2)CC1	HG23 norovirus replicon cells		48 h		TD50	145 ± 20 µM
CO[C@]1(COP(=O)(N[C@@H](C)C(=O)OCc2ccccc2)Oc2ccccc2)O[C@@H](n2ccc(N)nc2=O)C(F)(F)[C@@H]1O (some centres unmarked)	HEL embryonic lung fibroblasts	cell morphology, microscopy			minimum cytotoxic concentration	> 100 µM
CCCCN(CCCC)N=O	HepaRG 3D spheroids	DNA damage, measured: % tail DNA	24 h	baseline: vehicle	lowest effective concentration	125 µM
CCCCC(CC)COC(=O)c1ccccc1C(=O)OCC(CC)CCCC (centres unmarked)	TK6		234 µM, 48 h, together with: reduced glutathione 500 µM		mitochondrial membrane permeability	decreased
C[C@H](Cn1cnc2c(N)ncnc21)OCP(=O)(O)O	hCMEC/D3		10 µM, 1 h, 37 °C, 3-drug cART combination		intracellular accumulation	5.15 ± 1.11 pmol/mg protein
H-HGLASTLTRWAHYNALIRAFGGG-NH2 (C-amide)	U-87 MG	fluorimetry	5 µM, 2 h, serum-free		internalized peptide	80 to 90%
CN(N=O)c1ccccc1	HepaRG 3D spheroids	DNA damage, measured: % tail DNA	24 h	baseline: vehicle	lowest effective concentration	188 µM

For quick reference, copied from above:
Molecule	cell line	test	conditions	scale	measurement	result
Nc1ncnn2c([C@@H]3O[C@H](CO)[C@@H](O)[C@H]3O)ccc12	Vero E6		concentration not given		cytotoxicity	toxic
C[C@H](Cn1cnc2c(N)ncnc21)OCP(=O)(O)O	hCMEC/D3		10 µM, 1 h, 37 °C, 3-drug cART combination		intracellular accumulation	5.15 ± 1.11 pmol/mg protein
COc1ccc2c3c([nH]c2c1)[C@H](CC(C)C)N1C(=O)[C@H](CCC(=O)OC(C)(C)C)NC(=O)[C@@H]1C3	Jurkat-DNR	cytotoxicity, measured: cell viability			TD50	2.84 µM
